Assay results collected from several papers.
Each numbered part is a random draw from the data of one study; scales do not carry over between parts. Changes are numbered by the printed parent chain.

Series 1
Target: CCNE1, cyclin fold, Cln2 fusion (human)
Method: yeast growth competition, sequencing
Sample: yeast
Notes: strong parent motif
Reference: not given
Direction: higher = stronger binding
Starting sequence: RBL2 docking peptide (human); STTRRRLFVENDS; partner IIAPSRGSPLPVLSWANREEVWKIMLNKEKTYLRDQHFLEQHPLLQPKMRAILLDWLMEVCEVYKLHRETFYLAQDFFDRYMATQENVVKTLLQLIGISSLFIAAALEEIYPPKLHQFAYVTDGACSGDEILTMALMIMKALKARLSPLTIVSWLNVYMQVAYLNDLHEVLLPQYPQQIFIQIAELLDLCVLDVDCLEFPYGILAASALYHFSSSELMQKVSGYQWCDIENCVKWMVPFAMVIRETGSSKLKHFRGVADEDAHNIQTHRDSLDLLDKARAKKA
For `S1R`, “normalised enrichment score” read 6.61.
`D12A`: “normalised enrichment score” 4.59.
Under “normalised enrichment score”, `E10R` is recorded as 1.65.
`S1C`: “normalised enrichment score” 6.72.
Under “normalised enrichment score”, `R6I` is recorded as 3.41.
Under “normalised enrichment score”, `R4P` is recorded as 1.11.
For `V9Y`, “normalised enrichment score” read 5.29.
`N11V`: “normalised enrichment score” 5.78.
For `F8D`, “normalised enrichment score” read 0.184.
Under “normalised enrichment score”, `L7Q` is recorded as 0.182.
`F8G` — result for “normalised enrichment score”: -0.0608.
`T3P` — result for “normalised enrichment score”: 4.94.
`S13V`: “normalised enrichment score” 5.3.
`F8E` — result for “normalised enrichment score”: 0.86.
`R5T` — result for “normalised enrichment score”: 1.47.
`S1Q`: “normalised enrichment score” 5.91.
Under “normalised enrichment score”, `R4Y` is recorded as 1.91.
`V9I`: “normalised enrichment score” 6.72.
Under “normalised enrichment score”, `E10M` is recorded as 3.16.
Under “normalised enrichment score”, `R6Y` is recorded as 0.467.
For `D12F`, “normalised enrichment score” read 3.78.

Series 2
Target: ABI1, truncated, D143A, DHFR fusion (Arabidopsis thaliana)
Method: DHFR PCA, deep sequencing
Sample: yeast
Notes: methotrexate growth selection, single substitutions
With: (+)-ABA 17 µM
Reference: wild-type fitted maximum
Direction: higher = stronger binding
Starting sequence: PYL1, truncated, DHFR fusion (Arabidopsis thaliana); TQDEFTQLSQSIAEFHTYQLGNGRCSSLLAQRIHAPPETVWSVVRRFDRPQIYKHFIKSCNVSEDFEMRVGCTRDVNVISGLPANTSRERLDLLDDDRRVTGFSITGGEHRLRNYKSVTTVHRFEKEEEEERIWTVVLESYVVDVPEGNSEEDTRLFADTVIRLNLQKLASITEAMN
For `T135V`, “relative binding score” read 7.14%.
Under “relative binding score”, `F124M` is recorded as 109%.
`P146C` — result for “relative binding score”: 31.9%.
`V145R`: “relative binding score” 16%.
For `Y141P`, “relative binding score” read -20.7%.
For `D144S`, “relative binding score” read 47%.
`D92Y` — result for “relative binding score”: 13.2%.
For `V161G`, “relative binding score” read 2.19%.
`M176L`: “relative binding score” 80.3%.
`T154D` — result for “relative binding score”: -14.6%.
Under “relative binding score”, `Y53H` is recorded as 63.3%.
`D3L` — result for “relative binding score”: 75.4%.
`E89V` — result for “relative binding score”: -5.72%.
`T39M`: “relative binding score” 82.8%.
For `F66E`, “relative binding score” read 70.6%.
For `S87K`, “relative binding score” read -1.04%.
Under “relative binding score”, `T73G` is recorded as 28.8%.
Under “relative binding score”, `R74I` is recorded as -13.1%.
`V40W`: “relative binding score” -22.9%.
`S87E` — result for “relative binding score”: -7.71%.
Under “relative binding score”, `R46N` is recorded as 45.8%.
`Q31S`: “relative binding score” 13.7%.
`R24V` — result for “relative binding score”: 73.5%.
For `R155G`, “relative binding score” read 2.77%.
For `F5P`, “relative binding score” read 64.4%.

Series 3
Target: RNA binding protein fox-1 homolog 2, RRM domain, GST-SBP tag (RBFOX2, Homo sapiens, UniProt O43251-10, residues 100-194)
Method: RNA Bind-n-Seq
Form: RNA
Sample: in vitro
Tested at: 365 nM
Notes: natural RNA segment, single round, ends assumed
Reference: no-protein control
Direction: higher = stronger binding
Constant ends, left off below: GGGAGUUCUACAGUCCGACGAUC … UGGAAUUCUCGGGUGCCAA
Residues (chain): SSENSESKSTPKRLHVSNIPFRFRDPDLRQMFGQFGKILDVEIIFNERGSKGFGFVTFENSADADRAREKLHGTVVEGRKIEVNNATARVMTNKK
`UGGCAACACACUUCACUGAACCCACUUGCUUCCAAAACGAUGCCAGCCCGAGGCACUGCUACGCCAGCAGCUGCCACAUGGGAUGGUGGCUCAGGCGCUCCCUCCAGGAU`: “RBNS enrichment (R)” 0.258.
For `UUGUAACCUACAAGUCACCAAACGAUGACUAGAAGCUGCAGUGCUGUACAGGAAUGUGAAGGGAGGCCUCUGAGCAGUCCAGGGUGUGCUUGACAAAGUCCCAAGUGCUC`, “RBNS enrichment (R)” read 0.338.
`GGGGCGUGUGCCCCAAGGGGUCUGAUCCCCUCCUUAGUCUUAGCUCAUGGGGCGGCUCAUGAGGAGCUGGGGGCAGGGUAGAAUGGGACCGAGCAGGAACAGAGGCUGCA`: “RBNS enrichment (R)” 1.85.
Under “RBNS enrichment (R)”, `GGCUACUUCCAAGGGCAGCCAGCAGGCCUGGACAGAGGUCUUGAAAGCCCUUGUCUUCUCUUCCCCCCCACCCCACUAGGCCUGGUUAACCUUCCGUUUCCAGCUUCUCC` is recorded as 0.512.
`GUUCCACCUGGAUCCAGUUGCAAAGUUUGGAAAAGUUCUCUUAGUUUUACUGGAUUCUCAGGGAGCCCUCUGUGGCCUUUUCCUUUAUUUUGAGUGCUGUUUCCUUUUUA` — result for “RBNS enrichment (R)”: 0.488.
`CCCUUCUAAUGAAUGAAACUAGGGGAAUUUCAGGGGACAGAGAUGGGAUUUGUUGUAUGAUAAACUGUAUGUAGUUUUUAGUCUUUCUGUUUUGAGAAGCAGUGGUUGGG` — result for “RBNS enrichment (R)”: 63.
Under “RBNS enrichment (R)”, `GGGUUUUUUUCUGCCUAAGUUUUACCUGUUUCACCAGUGUUUCAGCCCUUGACUGCCCCUCCUAUGCUGCUUCCAAAAGUAAUAGUGUGAUAAGAUUUUUACCUUCCUUU` is recorded as 0.692.
Under “RBNS enrichment (R)”, `UCCCAACAUGUGAUGACUAUUCUUGGUUGUCAUCUUGAAUACUACUAGGUGAUUAGGCCUAUUGGUAGAUAGCCAUUGUUGAACUACCUGGACCACAAUUUGUAAGCCAU` is recorded as 0.582.
For `GAUUCAUUUGUGUAACUCACUGAAGCCAAAAUACUAUCUUUUAAGAUGUCCCACAUGGAAGACGCUAUUCCAGGAUCUUUAAAUUUCCAUGGAUGCAUAUAGGAUGUUUG`, “RBNS enrichment (R)” read 0.478.
For `GGGGUUUAAACAUUUGACAGCCAACUCUAUUUUUAUACGACUACUAUACAAAGAAACUACAUAUAGUUUUAUGAUUUAAGGUACUUAGAAAUGUUUAUGGUUAACAUUGU`, “RBNS enrichment (R)” read 0.513.
`CUAGAGUGGUUACAUUUAAUCAGGCAGUAAGAUAAUUUGGGUUCUUGAGUUGUUUUGGAGUAAUAUCCCACAACUGGGGUAGGAAGCUCAGGACUUUUUUCUUUAAAGCU`: “RBNS enrichment (R)” 0.495.
Under “RBNS enrichment (R)”, `UGUGCAUAGGCAGCCCUCUCACGUCUUGAGGUCCGAAGCUGGGGUGGGGGUGUCCGUCAGUUAUUAGUGGAUGGAGAUUCCCACAGCAAGGCUGCAUUUGAAUGAUUUCC` is recorded as 0.717.

Series 4
Target: UBE2J2 UBC core domain (UniProt Q8N2K1)
Method: yeast two-hybrid
Sample: yeast
Notes: mostly zero background
Reference: not given
Direction: higher = stronger interaction
B1: RNF170 RING domain (UniProt Q96K19); chain TRQQFYTDMYCPICLHQASFPVETNCGHLFCGACIIAYWRYGSWLGAISCPICRQTVTLLLTVF
B2: RC3H2 RING domain (UniProt Q9HBD1); chain QAAQWTEFLSCPICYNEFDENVHKPISLGCSHTVCKTCLNKLHRKACPFDQTAINTDIDVL
B3: TRIM69 RING domain (UniProt Q86WT6); chain VIQDITMELHCPLCNDWFRDPLMLSCGHNFCEACIQDFWRLQAKETFCPECKMLCQYNNCTF
B4: UHRF2 RING domain (UniProt Q96PU4); chain CGGDPEKKCHSCSCRVCGGKHEPNMQLLCDECNVAYHIYCLNPPLDKVPEEEYWYCPSCKTDSSEVVKAGER
B5: TRIM8 RING domain (UniProt Q9BZR9); chain WKNCFEEELICPICLHVFVEPVQLPCKHNFCRGCIGEAWAKDSGLVRCPECNQAYNQKPGLE
B6: TRIM72 RING domain (UniProt Q6ZMU5); chain APGLLHQELSCPLCLQLFDAPVTAECGHSFCRACLGRVAGEPAADGTVLCPCCQAPTRPQALST
B7: IRF2BPL RING domain (UniProt Q9H1B7); chain SPMANSGPLCCTICHERLEDTHFVQCPSVPSHKFCFPCSRESIKAQGATGEVYCPSGEKCPLVGSNVP
B8: ZNF598 RING domain (UniProt Q86UK7); chain AAAPERGGGSCVLCCGDLEATALGRCDHPVCYRCSTKMRVLCEQRYCAVCREELRQVVFGK
Construct (chain): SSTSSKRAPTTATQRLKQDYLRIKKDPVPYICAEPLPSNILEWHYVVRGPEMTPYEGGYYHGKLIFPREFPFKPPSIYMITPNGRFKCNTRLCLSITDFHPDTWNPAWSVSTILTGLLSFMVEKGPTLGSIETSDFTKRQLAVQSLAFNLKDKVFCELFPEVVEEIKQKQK
Under “lacZ reporter activity”, `PEELQAMDNVCIICREEMVTGAKRLPCNHIFHTSCLRSWFQRQQTCPTCRMDVLRASLPA (SYVN1 RING domain (UniProt Q86TM6))` is recorded as 2640.
Under “lacZ reporter activity”, `B1 (RNF170 RING domain)` is recorded as 0.
Under “lacZ reporter activity”, `B2 (RC3H2 RING domain)` is recorded as 0.
`YWAMDSTFELCKICAESNKDVKIEPCGHLLCSCCLAAWQHSDSQTCPFCRCEIKGWEAVS (CBLC RING domain (UniProt Q9ULV8))` — result for “lacZ reporter activity”: 0.
`B3 (TRIM69 RING domain)` — result for “lacZ reporter activity”: 0.
For `B4 (UHRF2 RING domain)`, “lacZ reporter activity” read 0.
For `EDEVSDNSAECVVCLSDVRDTLILPCRHLCLCNTCADTLRYQANNCPICRLPFRALLQIR (RNF157 RING domain (UniProt Q96PX1))`, “lacZ reporter activity” read 0.
`RLTMMWEEVTCPICLDPFVEPVSIECGHSFCQECISQVGKGGGSVCPVCRQRFLLKNLRP (TRIM21 RING domain (UniProt P19474))` — result for “lacZ reporter activity”: 0.
For `B5 (TRIM8 RING domain)`, “lacZ reporter activity” read 0.
`B6 (TRIM72 RING domain)`: “lacZ reporter activity” 0.
For `DDENSDNSNECVVCLSDLRDTLILPCRHLCLCTSCADTLRYQANNCPICRLPFRALLQIR (MGRN1 RING domain (UniProt O60291))`, “lacZ reporter activity” read 0.
Under “lacZ reporter activity”, `B7 (IRF2BPL RING domain)` is recorded as 12500.
Under “lacZ reporter activity”, `FPEHFVKSISCQICEHILADPVETNCKHVFCRVCILRCLKVMGSYCPSCRYPCFPTDLES (RAG1 RING domain (UniProt P15918))` is recorded as 0.
Under “lacZ reporter activity”, `B8 (ZNF598 RING domain)` is recorded as 0.

Repeated from above (series 2):
For `F5P`, “relative binding score” read 64.4%.
For `D144S`, “relative binding score” read 47%.
`V145R`: “relative binding score” 16%.
For `T135V`, “relative binding score” read 7.14%.
Under “relative binding score”, `R74I` is recorded as -13.1%.
Under “relative binding score”, `F124M` is recorded as 109%.
`T154D` — result for “relative binding score”: -14.6%.
Under “relative binding score”, `Y53H` is recorded as 63.3%.
For `S87K`, “relative binding score” read -1.04%.
For `R155G`, “relative binding score” read 2.77%.
For `Y141P`, “relative binding score” read -20.7%.
